# Published values collected from several papers.
# Numbered parts are unrelated; each lists some results of a single study. “And” joins repeats or separate records; there may be more than shown.
# Sequence of UniProt P42336 (whole entry, unmodified, looked up): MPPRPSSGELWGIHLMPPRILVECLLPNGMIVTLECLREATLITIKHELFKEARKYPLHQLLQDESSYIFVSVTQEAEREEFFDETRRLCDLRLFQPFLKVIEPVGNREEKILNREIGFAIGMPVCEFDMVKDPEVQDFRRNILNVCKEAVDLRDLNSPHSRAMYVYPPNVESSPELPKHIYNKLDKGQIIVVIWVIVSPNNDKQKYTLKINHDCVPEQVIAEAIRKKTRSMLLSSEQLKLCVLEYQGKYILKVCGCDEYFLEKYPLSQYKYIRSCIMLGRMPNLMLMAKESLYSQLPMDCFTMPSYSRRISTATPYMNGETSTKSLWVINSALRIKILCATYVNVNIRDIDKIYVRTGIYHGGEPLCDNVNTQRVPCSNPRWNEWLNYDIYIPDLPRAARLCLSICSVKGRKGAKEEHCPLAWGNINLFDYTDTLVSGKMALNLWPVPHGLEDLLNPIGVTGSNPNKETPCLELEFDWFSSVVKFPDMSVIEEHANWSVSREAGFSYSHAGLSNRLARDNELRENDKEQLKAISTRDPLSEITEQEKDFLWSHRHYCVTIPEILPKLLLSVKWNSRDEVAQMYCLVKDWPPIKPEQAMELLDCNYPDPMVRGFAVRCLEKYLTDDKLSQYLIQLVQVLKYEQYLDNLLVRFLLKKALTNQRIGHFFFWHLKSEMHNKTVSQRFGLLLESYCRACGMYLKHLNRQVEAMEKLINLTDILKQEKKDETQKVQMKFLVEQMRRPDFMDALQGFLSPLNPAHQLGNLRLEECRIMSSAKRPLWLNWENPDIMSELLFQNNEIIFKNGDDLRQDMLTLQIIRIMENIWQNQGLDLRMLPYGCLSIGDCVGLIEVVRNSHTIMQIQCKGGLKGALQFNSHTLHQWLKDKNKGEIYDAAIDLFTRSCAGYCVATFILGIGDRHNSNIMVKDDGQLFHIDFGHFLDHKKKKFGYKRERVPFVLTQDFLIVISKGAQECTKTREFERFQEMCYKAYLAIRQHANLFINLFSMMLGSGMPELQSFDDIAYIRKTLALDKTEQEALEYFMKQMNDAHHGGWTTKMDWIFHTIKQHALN
# Sequence of UniProt Q16288 (whole entry, looked up): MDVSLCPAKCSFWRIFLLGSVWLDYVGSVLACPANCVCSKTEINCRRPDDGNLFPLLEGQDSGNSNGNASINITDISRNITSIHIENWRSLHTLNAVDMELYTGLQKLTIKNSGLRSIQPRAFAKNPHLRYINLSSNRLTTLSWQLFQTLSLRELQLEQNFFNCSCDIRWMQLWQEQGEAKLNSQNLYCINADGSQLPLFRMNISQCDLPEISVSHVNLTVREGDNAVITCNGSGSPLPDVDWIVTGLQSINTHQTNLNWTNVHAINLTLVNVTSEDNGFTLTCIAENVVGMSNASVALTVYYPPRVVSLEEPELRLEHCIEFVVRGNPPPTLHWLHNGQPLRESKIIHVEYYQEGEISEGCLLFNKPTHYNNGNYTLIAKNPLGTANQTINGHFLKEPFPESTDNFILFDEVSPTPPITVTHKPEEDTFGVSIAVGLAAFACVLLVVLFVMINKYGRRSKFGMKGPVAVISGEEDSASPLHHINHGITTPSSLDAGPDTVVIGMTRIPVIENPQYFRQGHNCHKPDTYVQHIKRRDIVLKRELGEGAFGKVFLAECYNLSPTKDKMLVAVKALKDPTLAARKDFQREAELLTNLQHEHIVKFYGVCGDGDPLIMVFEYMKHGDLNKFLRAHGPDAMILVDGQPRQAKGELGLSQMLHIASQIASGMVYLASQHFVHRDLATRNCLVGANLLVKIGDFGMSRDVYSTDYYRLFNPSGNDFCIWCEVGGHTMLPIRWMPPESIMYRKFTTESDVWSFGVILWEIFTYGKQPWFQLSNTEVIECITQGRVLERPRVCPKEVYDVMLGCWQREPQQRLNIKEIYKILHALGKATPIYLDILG
# Sequence of UniProt P41743 (whole entry, looked up): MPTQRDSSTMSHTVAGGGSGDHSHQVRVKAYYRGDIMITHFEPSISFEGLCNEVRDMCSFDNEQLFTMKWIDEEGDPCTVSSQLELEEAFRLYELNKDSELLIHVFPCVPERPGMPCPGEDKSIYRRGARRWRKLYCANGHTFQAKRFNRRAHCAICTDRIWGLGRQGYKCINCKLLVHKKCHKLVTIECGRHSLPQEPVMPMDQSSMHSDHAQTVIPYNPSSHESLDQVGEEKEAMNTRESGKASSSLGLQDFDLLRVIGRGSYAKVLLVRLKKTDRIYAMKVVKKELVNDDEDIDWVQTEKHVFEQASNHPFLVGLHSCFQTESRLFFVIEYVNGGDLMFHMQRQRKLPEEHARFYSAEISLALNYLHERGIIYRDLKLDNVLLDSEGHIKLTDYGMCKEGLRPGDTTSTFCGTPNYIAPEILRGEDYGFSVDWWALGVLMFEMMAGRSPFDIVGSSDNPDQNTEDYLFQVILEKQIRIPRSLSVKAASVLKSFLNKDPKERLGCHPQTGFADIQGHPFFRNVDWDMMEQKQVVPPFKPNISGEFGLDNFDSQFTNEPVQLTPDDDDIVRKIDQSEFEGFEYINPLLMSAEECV

# Set 1 — method: competition with immobilised ligand; tested at: 1 µM
# Compound: O=S(=O)(NC1CCC(c2cc(F)ccc2F)(S(=O)(=O)c2ccc(Cl)cc2)CC1)C(F)(F)F (centres unmarked)
target,effect on,remaining binding
"Ephrin type-A receptor 4 (EPHA4, Homo sapiens, UniProt P54764)",cell-free assay,95%
"Phosphatidylinositol 4,5-bisphosphate 3-kinase catalytic subunit alpha isoform (PIK3CA, Homo sapiens, UniProt P42336, I800L)",cell-free assay,98%
"Ribosomal protein S6 kinase alpha-6, N-terminal kinase domain (RPS6KA6, Homo sapiens, UniProt Q9UK32)",cell-free assay,83%
"Tyrosine-protein kinase FRK (FRK, Homo sapiens, UniProt P42685)",cell-free assay,100%
"Tyrosine-protein kinase ABL1, non-phosphorylated (ABL1, Homo sapiens, UniProt P00519, F317I)",binding,84%
"Serine/threonine-protein kinase ULK1 (ULK1, Homo sapiens, UniProt O75385)",cell-free assay,84%
"Mitogen-activated protein kinase 1 (MAPK1, Homo sapiens, UniProt P28482)",cell-free assay,100%
"Serine/threonine-protein kinase 32B (STK32B, Homo sapiens, UniProt Q9NY57)",cell-free assay,100%
"Serine/threonine-protein kinase WNK1 (WNK1, Homo sapiens, UniProt Q9H4A3)",cell-free assay,100%
"Phosphatidylinositol 4,5-bisphosphate 3-kinase catalytic subunit alpha isoform (PIK3CA, Homo sapiens, UniProt P42336, M1043I)",cell-free assay,100%
"Dual specificity testis-specific protein kinase 1 (TESK1, Homo sapiens, UniProt Q15569)",cell-free assay,100%
"Serine/threonine-protein kinase Chk2 (CHEK2, Homo sapiens, UniProt O96017)",cell-free assay,100%
"Serine/threonine-protein kinase BRSK2 (BRSK2, Homo sapiens, UniProt Q8IWQ3)",cell-free assay,100%
"Serine/threonine-protein kinase ULK2 (ULK2, Homo sapiens, UniProt Q8IYT8)",cell-free assay,100%
"NUAK family SNF1-like kinase 1 (NUAK1, Homo sapiens, UniProt O60285)",cell-free assay,83%
"NT-3 growth factor receptor (NTRK3, Homo sapiens, UniProt Q16288)",cell-free assay,91%
"Insulin receptor (INSR, Homo sapiens, UniProt P06213)",cell-free assay,95%
"Myosin light chain kinase (MYLK3, Homo sapiens, UniProt Q32MK0)",cell-free assay,86%
"Eukaryotic translation initiation factor 2-alpha kinase 1 (EIF2AK1, Homo sapiens, UniProt Q9BQI3)",cell-free assay,100%
"Protein kinase C iota type (PRKCI, Homo sapiens, UniProt P41743)",cell-free assay,100%
"Protein kinase C theta type (PRKCQ, Homo sapiens, UniProt Q04759)",cell-free assay,100%
"Mitogen-activated protein kinase 8 (MAPK8, Homo sapiens, UniProt P45983)",cell-free assay,78%
"Rhodopsin kinase GRK1 (GRK1, Homo sapiens, UniProt Q15835)",cell-free assay,84%
"Tyrosine-protein kinase ZAP-70 (ZAP70, Homo sapiens, UniProt P43403)",cell-free assay,100%
"Inhibitor of nuclear factor kappa-B kinase subunit epsilon (IKBKE, Homo sapiens, UniProt Q14164)",binding,0%

# Set 2 — effect on: enzyme activity; mode: inhibitor; tested at: 0.5 µM; reference: control
# Target: Serine/threonine-protein kinase Nek11 (NEK11, Homo sapiens, UniProt Q8NG66)
# Residues (Q8NG66 1-645): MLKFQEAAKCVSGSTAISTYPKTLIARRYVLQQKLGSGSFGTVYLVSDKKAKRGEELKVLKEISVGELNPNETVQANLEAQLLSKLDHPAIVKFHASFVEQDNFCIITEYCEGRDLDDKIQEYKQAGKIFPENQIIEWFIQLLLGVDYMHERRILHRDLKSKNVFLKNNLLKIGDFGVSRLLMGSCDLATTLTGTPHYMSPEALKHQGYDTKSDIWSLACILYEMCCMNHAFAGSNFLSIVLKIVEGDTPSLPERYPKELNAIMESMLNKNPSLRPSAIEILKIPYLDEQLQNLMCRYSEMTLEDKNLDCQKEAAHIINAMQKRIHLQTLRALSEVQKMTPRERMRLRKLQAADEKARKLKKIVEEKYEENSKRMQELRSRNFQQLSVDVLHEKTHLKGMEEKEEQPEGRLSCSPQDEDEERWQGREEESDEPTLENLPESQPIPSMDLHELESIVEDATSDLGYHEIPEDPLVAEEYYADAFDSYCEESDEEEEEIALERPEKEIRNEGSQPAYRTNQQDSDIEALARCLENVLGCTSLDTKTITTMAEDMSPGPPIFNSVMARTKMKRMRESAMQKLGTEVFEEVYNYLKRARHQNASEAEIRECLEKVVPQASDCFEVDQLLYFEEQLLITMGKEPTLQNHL
SMILES,remaining activity
C[C@@H](N)[C@H]1CC[C@H](C(=O)Nc2ccncc2)CC1,120%
NC(=O)c1cccc(-c2cc(Nc3ccc(OC(F)(F)F)cc3)ncn2)c1,98.3%
NC(=O)c1ccc(-c2nc(-c3ccc4c(c3)OCCO4)c(-c3ccccn3)[nH]2)cc1,108%
CCN(CC)CCCCN1c2ccccc2Oc2ccc(Cl)cc21,92%
O=Nc1c(-c2c(O)[nH]c3ccccc23)[nH]c2ccccc12,98.2%
CCCCc1c(-c2ccc(O)cc2)[nH]c2nccnc12,92.5%
CC(C)(C)c1nc2c3cc[nH]c(=O)c3c3cc(F)ccc3c2[nH]1,92.4%
O=c1c(-c2ccc(F)cc2)c(-c2ccncc2)[nH]n1-c1ccc(Cl)cc1,104%
COc1cc2c(Nc3ccc(Br)cc3F)ncnc2cc1OCC1CCN(C)CC1,103%
CNc1cc2c(Nc3cccc(Br)c3)ncnc2cn1,106%
CC(C)n1cnc2c(Nc3cccc(Cl)c3)nc(NCCO)nc21,109%
c1cc(-c2cnn3cc(-c4ccc(OCCN5CCCCC5)cc4)cnc23)ccn1,96.7%
CC(C)N(CCC(=O)c1ccc2ccccc2c1)Cc1ccccc1,105%
COc1cc2c(N3CCN(C(=O)Nc4ccc(OC(C)C)cc4)CC3)ncnc2cc1OCCCN1CCCCC1,92.5%
O=C1c2ccccc2-c2nc3nnnn3nc21,88%
FC(F)(F)c1ccc(/C=C/c2nc(COc3ccc(CCCCn4ccnn4)cc3)co2)cc1,97.6%
O=C(c1ccccc1)c1ccc(N2CCOCC2)cc1O,97.7%
O=C1NC(=O)/C(=C/c2ccc3c(c2)OC(F)(F)O3)S1,111%
N#CC(c1ccnc(NCCc2cccnc2)n1)c1nc2ccccc2s1 (centres unmarked),118%
O=C(O)/C=C/c1cc(Br)c(Br)c(Br)c1Br,101%
N#C/C(=C(/N)SC1C=CC=CC1)c1cccc(C(O)c2ccncc2)c1 (centres unmarked),103%
Nc1nc(Nc2ccc(S(N)(=O)=O)cc2)nn1C(=S)Nc1c(F)cccc1F,101%

# Set 3 — effect on: enzyme activity; mode: inhibitor; tested at: 77 µM; reference: untreated
# Target: DNA polymerase theta, ATPase domain (POLQ, Homo sapiens, UniProt O75417)
# Sequence of UniProt O75417 (whole entry, unmodified, looked up): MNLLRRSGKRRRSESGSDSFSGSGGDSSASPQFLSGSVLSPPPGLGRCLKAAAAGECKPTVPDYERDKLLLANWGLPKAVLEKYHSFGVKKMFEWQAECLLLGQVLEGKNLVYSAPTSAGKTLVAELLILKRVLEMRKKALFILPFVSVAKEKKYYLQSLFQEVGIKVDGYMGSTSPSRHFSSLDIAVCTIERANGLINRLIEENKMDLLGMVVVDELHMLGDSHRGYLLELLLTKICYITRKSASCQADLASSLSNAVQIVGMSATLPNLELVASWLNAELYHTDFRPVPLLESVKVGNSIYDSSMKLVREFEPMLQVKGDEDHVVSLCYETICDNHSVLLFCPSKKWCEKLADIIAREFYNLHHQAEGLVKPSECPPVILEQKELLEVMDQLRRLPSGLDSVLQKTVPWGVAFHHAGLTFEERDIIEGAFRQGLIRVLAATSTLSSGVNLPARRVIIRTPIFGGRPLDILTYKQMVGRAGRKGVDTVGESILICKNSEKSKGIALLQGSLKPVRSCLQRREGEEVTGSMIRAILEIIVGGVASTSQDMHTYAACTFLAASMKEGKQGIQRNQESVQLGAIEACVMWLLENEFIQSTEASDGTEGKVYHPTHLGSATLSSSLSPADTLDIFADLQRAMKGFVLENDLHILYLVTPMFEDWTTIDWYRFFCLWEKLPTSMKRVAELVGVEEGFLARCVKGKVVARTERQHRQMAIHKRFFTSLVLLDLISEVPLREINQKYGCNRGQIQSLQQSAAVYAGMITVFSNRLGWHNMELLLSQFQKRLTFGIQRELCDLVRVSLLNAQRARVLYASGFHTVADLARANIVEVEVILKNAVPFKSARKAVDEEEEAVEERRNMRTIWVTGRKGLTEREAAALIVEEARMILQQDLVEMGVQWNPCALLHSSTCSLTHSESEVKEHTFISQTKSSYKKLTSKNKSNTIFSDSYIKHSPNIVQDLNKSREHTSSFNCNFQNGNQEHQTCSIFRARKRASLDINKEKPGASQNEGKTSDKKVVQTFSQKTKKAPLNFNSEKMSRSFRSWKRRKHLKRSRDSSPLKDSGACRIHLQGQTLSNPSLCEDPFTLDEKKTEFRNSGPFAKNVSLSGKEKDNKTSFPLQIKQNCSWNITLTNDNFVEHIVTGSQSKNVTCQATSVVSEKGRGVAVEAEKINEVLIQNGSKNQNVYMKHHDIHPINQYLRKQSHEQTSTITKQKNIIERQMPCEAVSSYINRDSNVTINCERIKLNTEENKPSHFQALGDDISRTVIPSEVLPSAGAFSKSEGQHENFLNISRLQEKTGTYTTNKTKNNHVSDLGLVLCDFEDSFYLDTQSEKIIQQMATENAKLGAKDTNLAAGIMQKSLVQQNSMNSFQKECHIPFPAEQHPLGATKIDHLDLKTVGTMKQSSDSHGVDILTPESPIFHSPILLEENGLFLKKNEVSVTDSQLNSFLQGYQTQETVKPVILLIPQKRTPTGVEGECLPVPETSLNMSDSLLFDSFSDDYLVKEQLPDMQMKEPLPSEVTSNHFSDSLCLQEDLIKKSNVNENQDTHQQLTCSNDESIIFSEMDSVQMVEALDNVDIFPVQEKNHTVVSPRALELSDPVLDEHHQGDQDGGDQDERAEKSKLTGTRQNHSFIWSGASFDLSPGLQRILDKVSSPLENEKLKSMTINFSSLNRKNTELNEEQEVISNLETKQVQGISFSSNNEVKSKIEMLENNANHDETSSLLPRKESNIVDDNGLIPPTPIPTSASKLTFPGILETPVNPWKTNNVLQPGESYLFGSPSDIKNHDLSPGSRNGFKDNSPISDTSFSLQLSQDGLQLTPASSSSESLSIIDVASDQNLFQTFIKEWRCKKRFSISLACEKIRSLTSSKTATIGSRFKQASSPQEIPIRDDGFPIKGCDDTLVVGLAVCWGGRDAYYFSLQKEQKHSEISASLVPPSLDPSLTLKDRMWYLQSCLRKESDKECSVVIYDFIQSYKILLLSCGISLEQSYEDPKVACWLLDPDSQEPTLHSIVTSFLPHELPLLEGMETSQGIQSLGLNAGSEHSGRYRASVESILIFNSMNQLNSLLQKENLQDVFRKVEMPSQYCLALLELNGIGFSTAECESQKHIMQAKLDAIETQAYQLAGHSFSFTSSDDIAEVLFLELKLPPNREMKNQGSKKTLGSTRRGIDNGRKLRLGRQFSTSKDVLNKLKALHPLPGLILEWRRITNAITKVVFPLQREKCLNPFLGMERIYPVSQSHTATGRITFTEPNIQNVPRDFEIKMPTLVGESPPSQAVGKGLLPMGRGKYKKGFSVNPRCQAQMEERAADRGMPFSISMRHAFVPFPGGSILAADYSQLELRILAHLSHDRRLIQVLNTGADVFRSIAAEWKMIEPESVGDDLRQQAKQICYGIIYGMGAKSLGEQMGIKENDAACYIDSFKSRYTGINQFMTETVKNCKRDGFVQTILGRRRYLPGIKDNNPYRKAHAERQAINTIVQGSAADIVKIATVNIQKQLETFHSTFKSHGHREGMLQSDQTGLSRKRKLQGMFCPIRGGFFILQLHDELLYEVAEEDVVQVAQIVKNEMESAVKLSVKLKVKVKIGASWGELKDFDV
SMILES,remaining activity
COc1cc([C@@H]2c3cc4c(cc3[C@@H](O[C@@H]3O[C@@H]5CO[C@@H](c6cccs6)O[C@H]5[C@H](O)[C@H]3O)[C@H]3COC(=O)[C@H]23)OCO4)cc(OC)c1O,100%
O=C(CSc1nc2c(c(=O)n1-c1ccccc1)SCC2)Nc1ccc(-c2ccccc2)cn1,99.6%
NC(N)=NC(=O)c1nc(Cl)c(N2CCCCCC2)nc1N,103%
COc1ccc(/C=C/c2nc(NCCCN(C)C)c3ccccc3n2)cc1,89.8%
CC(C)CC(N)=O,91.5%
Cc1ccc(Nc2c(F)cccc2Cl)c(CC(=O)O)c1,93.8%
Cc1cc(Nc2nc(-c3ccccc3)nc3ccccc23)n[nH]1,116%
C[C@]12CCC(=O)C=C1[C@@H]1C[C@@H]1[C@H]1[C@@H]3[C@@H]4C[C@@H]4[C@@]4(CCC(=O)O4)[C@@]3(C)CC[C@@H]12,98%
COc1ccccc1CNCCCCCCNCCCCCCCCNCCCCCCNCc1ccccc1OC,109%
C=CCc1ccc(O)c(-c2cc(CC=C)ccc2O)c1,92%
O=C1NC(=O)c2c1c(-c1ccccc1Cl)cc1[nH]c3ccc(O)cc3c21,99.2%
S=C(Nc1ccccc1)Nc1nccs1,108%
O=c1cc(-c2cccc3c2Sc2ccccc2S3)oc(N2CCOCC2)c1,98.7% and 97.5% and 102% and 86.7%
C=CC[N+]1([C@H]2C[C@H]3[C@@H]4CC[C@H]5C[C@H](O)[C@@H](N6CCOCC6)C[C@]5(C)[C@H]4CC[C@]3(C)[C@H]2OC(C)=O)CCCC1,98.3%

# Set 4 — mode: inhibitor; tested at: 1 µM
# Compound: CO[C@@H]1[C@H](N(C)C(=O)c2ccccc2)C[C@H]2O[C@]1(C)n1c3ccccc3c3c4c(c5c6ccccc6n2c5c31)C(=O)NC4
target,effect on,inhibition [%]
"Phosphatidylinositol 4,5-bisphosphate 3-kinase catalytic subunit alpha isoform (PIK3CA, Homo sapiens, UniProt P42336)",enzyme activity,24
"Tyrosine-protein kinase ABL1, phosphorylated (ABL1, Homo sapiens, UniProt P00519, F317I)",enzyme activity,32
"Ribosomal protein S6 kinase alpha-4, N-terminal kinase domain (RPS6KA4, Homo sapiens, UniProt O75676)",,55
"Non-receptor tyrosine-protein kinase TYK2, JH2 pseudokinase domain (TYK2, Homo sapiens, UniProt P29597)",,95
"Myosin light chain kinase family member 4 (MYLK4, Homo sapiens, UniProt Q86YV6)",enzyme activity,19
"Ephrin type-A receptor 6 (EPHA6, Homo sapiens, UniProt Q9UF33)",enzyme activity,0
"Serine/threonine-protein kinase Nek6 (NEK6, Homo sapiens, UniProt Q9HC98)",enzyme activity,0
"Serine/threonine-protein kinase WNK3 (WNK3, Homo sapiens, UniProt Q9BYP7)",enzyme activity,0
"Phosphatidylinositol 4,5-bisphosphate 3-kinase catalytic subunit alpha isoform (PIK3CA, Homo sapiens, UniProt P42336, E545A)",enzyme activity,20
"Tyrosine-protein kinase ABL1, phosphorylated (ABL1, Homo sapiens, UniProt P00519, T315I)",enzyme activity,46
"Epidermal growth factor receptor (EGFR, Homo sapiens, UniProt P00533, del752-759)",enzyme activity,6
"Activated CDC42 kinase 1 (TNK2, Homo sapiens, UniProt Q07912)",enzyme activity,97
"Megakaryocyte-associated tyrosine-protein kinase (MATK, Homo sapiens, UniProt P42679)",enzyme activity,63
"Bone morphogenetic protein receptor type-1A (BMPR1A, Homo sapiens, UniProt P36894)",enzyme activity,6
"Casein kinase II subunit alpha (CSNK2A1, Homo sapiens, UniProt P68400)",enzyme activity,12
"LIM domain kinase 2 (LIMK2, Homo sapiens, UniProt P53671)",enzyme activity,0
"Calcium/calmodulin-dependent protein kinase type 1B (PNCK, Homo sapiens, UniProt Q6P2M8)",cell-free assay,24
"Mast/stem cell growth factor receptor Kit (KIT, Homo sapiens, UniProt P10721, V559D/V654A)",enzyme activity,64
"Mitogen-activated protein kinase kinase kinase 14 (MAP3K14, Homo sapiens, UniProt Q99558)",enzyme activity,48

# A few entries again (set 1):
target,effect on,remaining binding
"Serine/threonine-protein kinase BRSK2 (BRSK2, Homo sapiens, UniProt Q8IWQ3)",cell-free assay,100%
"Serine/threonine-protein kinase ULK2 (ULK2, Homo sapiens, UniProt Q8IYT8)",cell-free assay,100%
"NUAK family SNF1-like kinase 1 (NUAK1, Homo sapiens, UniProt O60285)",cell-free assay,83%
"NT-3 growth factor receptor (NTRK3, Homo sapiens, UniProt Q16288)",cell-free assay,91%
"Insulin receptor (INSR, Homo sapiens, UniProt P06213)",cell-free assay,95%
"Myosin light chain kinase (MYLK3, Homo sapiens, UniProt Q32MK0)",cell-free assay,86%
"Eukaryotic translation initiation factor 2-alpha kinase 1 (EIF2AK1, Homo sapiens, UniProt Q9BQI3)",cell-free assay,100%
"Protein kinase C iota type (PRKCI, Homo sapiens, UniProt P41743)",cell-free assay,100%
"Protein kinase C theta type (PRKCQ, Homo sapiens, UniProt Q04759)",cell-free assay,100%
"Mitogen-activated protein kinase 8 (MAPK8, Homo sapiens, UniProt P45983)",cell-free assay,78%
"Rhodopsin kinase GRK1 (GRK1, Homo sapiens, UniProt Q15835)",cell-free assay,84%
"Tyrosine-protein kinase ZAP-70 (ZAP70, Homo sapiens, UniProt P43403)",cell-free assay,100%
"Inhibitor of nuclear factor kappa-B kinase subunit epsilon (IKBKE, Homo sapiens, UniProt Q14164)",binding,0%
